Published values pooled from the literature.
Protocols differ between the studies behind these lines. ± marks the error that the study gave.
Cell line: OVCAR-3

CC1(C)[C@@H](O)CC[C@]2(C)[C@H]3C(=O)C=C4[C@@H]5C[C@@](C)(C(=O)O)CC[C@]5(C)CC[C@@]4(C)[C@]3(C)CC[C@@H]12  IC50 (cell growth or viability, MTT; 48 h): 72.4 µM
CC/C=C\C/C=C\C/C=C\C/C=C\C/C=C\C/C=C\CCC(=O)Nc1ccn(C2OC(CO)C(O)C2(F)F)c(=O)n1 (stereo not shown)  TGI (NCI60 screen): 23.5 µM
Cc1cc(C)c([N+]#[C][Pt-]([Cl])([Cl])=[C](Nc2cccc(CN[C](Nc3c(C(C)C)cccc3C(C)C)=[Au][Cl])c2)Nc2c(C)cc(C)cc2C)c(C)c1  IC50 (cell growth or viability): > 100 µM
CCC(=C(c1ccc(Cl)cc1)c1ccc(OCCCN(C)C)cc1)c1ccc(OC)cc1  GI50 (cell growth or viability): 3.27 µM
CC(=O)O[C@H]1C(=O)[C@]2(C)[C@@H](OC(=O)[C@H](N)CSC3CC(=O)N(CCC(=O)Nc4ccc(-c5ccc(/N=N/c6ccc7c(S(=O)(=O)O)cc(S(=O)(=O)O)c(N)c7c6O)c(C)c5)cc4C)C3=O)C[C@H]3OC[C@@]3(OC(C)=O)[C@H]2[C@H](OC(=O)c2ccccc2)[C@]2(O)C[C@H](OC(=O)[C@H](O)[C@@H](NC(=O)c3ccccc3)c3ccccc3)C(C)=C1C2(C)C (stereo partly shown)  cellular uptake (flow cytometry; concentration not given, 4 h): 29.1%
CC(=C(c1ccc(O)cc1)c1ccc(Cl)cc1)c1ccc(Cl)cc1  GI50 (cell growth or viability): 0.67 µM
CC(C)c1cccc(C(C)C)c1[N+]#[C][Pd-]([Cl])([Cl])=[C](Nc1cccc(CN[C](Nc2c(C(C)C)cccc2C(C)C)=[Au][Cl])c1)Nc1c(C(C)C)cccc1C(C)C  IC50 (cell growth or viability): 20 µM
CC(=O)OCC1(O)C(Nc2cccc(C(C)=O)c2)C(N)C(NC(=O)N(C)C)(C(C)OC(C)=O)C1(C)O (stereo not shown)  GI50 (cell growth or viability, SRB): 0.53 µM
COc1ccc(CC2COC(=O)C2Cc2ccc3c(c2)OCO3)cc1OC (mixture of isomers)  IC50 (cytotoxicity, MTT; 72 h): 14.3 ± 0.32 µM
Cc1cc(C)c(N[C](NCc2cccc(N[C](Nc3c(C(C)C)cccc3C(C)C)=[Pd-]([Cl])([Cl])[C]#[N+]c3c(C(C)C)cccc3C(C)C)c2)=[Au][Cl])c(C)c1  IC50 (cell growth or viability): 80 µM
CC(=O)OC[C@H]1O[C@@H](Sc2sc(C(=O)c3ccc(C)cc3)c(N)c2-c2nc3ccccc3s2)[C@H](OC(C)=O)[C@@H](OC(C)=O)[C@@H]1OC(C)=O  growth (SRB; 10 µM, 48 h; reference: untreated): 59.4%
Cc1cc(C)c(N=[C](NCc2ccc(N)cc2)[AuH][Cl])c(C)c1  IC50 (cell growth or viability): > 100 µM
CC(=O)OC[C@H]1O[C@@H](Sc2sc(C(=O)c3ccc(Br)cc3)c(N)c2-c2nc3ccccc3s2)[C@H](OC(C)=O)[C@@H](OC(C)=O)[C@@H]1OC(C)=O  growth (SRB; 10 µM, 48 h; reference: untreated): 76.2%

Some of these lines once more:
CCC(=C(c1ccc(Cl)cc1)c1ccc(OCCCN(C)C)cc1)c1ccc(OC)cc1  GI50 (cell growth or viability): 3.27 µM
